Published values of several laboratories.
A part holds a random share of what one study measured. Positions count from the first letter of the parent shown.

Series 1 — technique: RNA Bind-n-Seq; form: RNA; medium: in vitro; tested at: 365 nM; baseline: no-protein control; reading: higher = stronger binding
Target: RNA binding protein fox-1 homolog 2, RRM domain, GST-SBP tag (RBFOX2, Homo sapiens, UniProt O43251-10, residues 100-194)
Notes: natural RNA segment, single round, ends assumed
Construct (chain): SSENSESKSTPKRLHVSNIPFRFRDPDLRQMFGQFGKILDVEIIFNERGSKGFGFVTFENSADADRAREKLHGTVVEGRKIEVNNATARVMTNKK
Sequence	RBNS enrichment (R)
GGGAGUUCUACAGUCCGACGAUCUGGAGUAUUAACAACCAGAAAGAAAGUUUGGAUAUUACCUUUUAACUACUAGUUAACAUCAUGCUUGAUCAACAUUUGCUCCUAGUUAUCACCAUUAAAUUAAGACCUUAUGGAAUUCUCGGGUGCCAA	0.414
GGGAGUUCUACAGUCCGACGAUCAAAAAAAAAAAACAACUGGAAAUGGAUGUCUUCACAUUAGGGGUGGAGUAUUAACAACCAGAAAGAAAGUUUGGAUAUUACCUUUUAACUACUAGUUAACAUCAUGCUUGUGGAAUUCUCGGGUGCCAA	0.551
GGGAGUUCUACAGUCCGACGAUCCCAAAGAUGUCCUUAUUGACAAAGCUGGCCUUUGUCACCUGAUUCCAGUAUUCUCACUGUCUUCUAUUUCUAGUAGGGAGCUGGAGUCAAAUAACUUGUAUAGAUUUUGGUGGAAUUCUCGGGUGCCAA	0.337
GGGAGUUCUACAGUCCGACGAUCGUAUGAAUAUUACUCAAAGUUAUGUUAGUCUUUUUUUCCGACUUGGUUCUUGUCAGCUAGGUUUAAAGGUAUUUCACUGAGAACGCAAAUUCUGUCUUUUCUUGAUUUCGUGGAAUUCUCGGGUGCCAA	0.354
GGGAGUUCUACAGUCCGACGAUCGAUGUGAUUCCCAACACAGAAUUUUCAUGACCCUUUUAUUGUAUACAAAUAAAUACCAUAACAGUUACUUGGUUAGACAUCAAAUCUGUGUGCAUGACUAUGUGCUUAUCUGGAAUUCUCGGGUGCCAA	14.4
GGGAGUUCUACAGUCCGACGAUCCAGAAUCAACUCAGCCUCAGGCAUCCAAAGCCACACCACAGUCGGUGGUGAUGCAACUGGGGGCUUACUCUGAGGAAACCUAGGAAAUCUCGGUGCACUAGGAAGUGAAUUGGAAUUCUCGGGUGCCAA	0.262
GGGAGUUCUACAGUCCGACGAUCACAGAUGCCCUCAGAAUUGGGGCAUGGGAGGGGGGCUGGGGGACCCCAUGAUUCAGCCACGGACUCCAAUGCCCAGCUCCUCUCCCCAAAACAAUCCCGACAAUCCCUUAUGGAAUUCUCGGGUGCCAA	0.244
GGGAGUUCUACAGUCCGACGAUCCUUUGAGUCUUUGAAAGCUUGAUGGCCUCUGCACCCUACUGAAAACCCCCUAAGCCAGCAGGAGCAGGGUAUGCAGAGGCUUUGCCUCUGCUGGCUUAGGGUGAGAAGUAUGGAAUUCUCGGGUGCCAA	0.761
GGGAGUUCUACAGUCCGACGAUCCUCCACCCCACACCUGAGUUCUUGCCUCCUCCUUUUGGGGACACCCAAAACACUGCUUGUGAGAAGGAAGAUGGAAGGUAAGUUCUGUCGUUCUUUCCCCAAUCCCCAGGUGGAAUUCUCGGGUGCCAA	0.387
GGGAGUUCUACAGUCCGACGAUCUGUAUGUGUGUGUACAUGCGCAUACAUAGAUAUAUGCACACAUAGAUUAUGUGCUUGACCACUGCCUUUUAAAACUUUAAAUUAAAUAAAACAUUGGGGAUGAUUCAAUUUGGAAUUCUCGGGUGCCAA	0.455
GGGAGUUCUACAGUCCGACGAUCGGAGACGAGGGCUGGCCAAGAACCUCCUAGAGGCUGUCCCUGGACCUGGAGCUGCAGGCAUCAGAGAACCAGCCCUGCUCACGCCAUGCCCGCCCCCGCCUUCCCUCUUCUGGAAUUCUCGGGUGCCAA	0.407
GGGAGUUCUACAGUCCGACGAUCCACACAACACUAAGUGCCUAGACUUUAAAUAGAUCUAGCAAUUGGAAAGUUAGUAAGCCUAAGUUUUUACAUAAUUGCAUUCCUACAUUCUUGUAAAAUUUAAAUAGCUAUGGAAUUCUCGGGUGCCAA	0.508

Series 2 — technique: RNA Bind-n-Seq; form: RNA; medium: in vitro; tested at: 200 nM; notes: whole 134-nt RNA, ends assumed; together with: 150 mM LiCl; baseline: input library; reading: higher = stronger binding; all molecules: 7-deaza-guanosine replaces G
Target: Ras GTPase-activating protein-binding protein 1, full length (G3BP1, Homo sapiens, UniProt Q13283)
Chain of UniProt Q13283 (whole entry, looked up): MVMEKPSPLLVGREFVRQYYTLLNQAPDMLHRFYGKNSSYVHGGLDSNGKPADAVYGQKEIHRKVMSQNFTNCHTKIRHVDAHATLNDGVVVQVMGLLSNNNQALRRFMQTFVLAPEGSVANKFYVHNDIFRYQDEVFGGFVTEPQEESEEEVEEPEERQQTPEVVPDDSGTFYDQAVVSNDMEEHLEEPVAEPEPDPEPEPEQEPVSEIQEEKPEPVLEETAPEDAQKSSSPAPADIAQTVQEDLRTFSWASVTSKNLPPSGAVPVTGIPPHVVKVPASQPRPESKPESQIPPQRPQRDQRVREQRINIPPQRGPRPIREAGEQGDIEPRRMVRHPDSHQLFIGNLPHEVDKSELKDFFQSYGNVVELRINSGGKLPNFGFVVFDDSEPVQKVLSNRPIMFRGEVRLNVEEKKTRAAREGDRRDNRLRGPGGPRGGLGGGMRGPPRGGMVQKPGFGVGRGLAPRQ
Sequence	log2 enrichment
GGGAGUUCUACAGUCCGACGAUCUUUCUGCAGCAUUAGAGAAGGCCCAAGAAGAAGCCCGUCAGCAGCAAGAAACAUUAGCCAUUCAAGUAAGCAAUGGAUGAUGAAUUAGAGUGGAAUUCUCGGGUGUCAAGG	-2.99
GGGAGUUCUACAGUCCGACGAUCAGUCCUGUGCUACACAUCGUAUGUACCGAAUCGGGGAAAGGGGAAAGGGGAAAGGGGAAAGUAUUAUGUUACGCCGUUCGGAUCUGCACUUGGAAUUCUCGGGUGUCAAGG	0.293
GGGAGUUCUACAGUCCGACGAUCGCAGGAAGUAAAAACAAAUGGAAAUGCUUCGGAUAGUGGCAGGGGUGGGGGUUGCUAAGGAAAGGGUGGGAUGGGAGUGGGUAAAGAGUUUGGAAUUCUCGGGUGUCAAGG	-0.252
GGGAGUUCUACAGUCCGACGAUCCACAGACAACACGCACCGACACAGACACAGAGGGAAGGGGUUGGGAUGGGGACAGGGUGCACAGCAGGGCGGGGUAGGACCCCAGCCCCUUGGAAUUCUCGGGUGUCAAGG	0.481
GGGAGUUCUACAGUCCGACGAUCGCAGGAAGUAAAAACAAAUGGAAAUGCUUCGGAUAGUGGCAGGGGUGGGGGUUGCUAAGGAAAGGGUGGGAUGGGAAUGGGUAAAGAGUUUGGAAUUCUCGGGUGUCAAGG	-0.338
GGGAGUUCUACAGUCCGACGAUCUGGGAGGUGGAUUUUGUUUAUUUUUUUAGCUCAUUUCCAGGGGUGGUAAUUUUUUUUUAAUAUGUGUCAUGAAUAAAGUUGUUUUUGAAAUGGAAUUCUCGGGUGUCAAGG	-0.284
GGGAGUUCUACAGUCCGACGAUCCUGUGCUACACAUCGUAUGUACCGAAUCAAACCCCCCCAAACCCCCCCAAAUUUUUUUAAAAAAGUAUUAUGUUACGCCGUUCGGAUCUGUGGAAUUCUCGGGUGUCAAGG	-0.751
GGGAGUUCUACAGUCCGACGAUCGCAGGGAGUAAAAACAAAUGGAAAUGCUUCGGAUAGUGGCAGGGGUGGGGGUUGCUAAGGAAAGGGUGGGAUGGGAGUGGGUAAAGAGUUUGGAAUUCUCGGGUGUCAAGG	-0.0288
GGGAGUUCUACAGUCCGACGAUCGCAGGAAGUAAAAACAAAUGGAAAUGCUUCGGAUAGUGGCAGGGGUGGGGGUUGCUAAGGAAAGGGUGGGGUGGGAGUGGGUAAAGAGUUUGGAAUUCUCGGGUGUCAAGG	0.308
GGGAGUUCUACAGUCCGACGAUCCACAGACAACACGCACCCACACAGACACAGAGGGAAGGGGUUGGGAUGUGGACAGGGUGCACAGCAGGGCGGGGUAGGACCCCAGCCCCUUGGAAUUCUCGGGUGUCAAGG	-1.51
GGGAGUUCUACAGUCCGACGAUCAAGUCCUGUGCUACACAUCGUAUGUACCGAAUCGGGGUGGGGAAAAAGGGGAGGGGAAAGUAUUAUGUUACGCCGUUCGGAUCUGCACUUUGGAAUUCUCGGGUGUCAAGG	0.497

Series 3 — target: CCNB1, cyclin fold, Cln2 fusion (human); technique: yeast growth competition, sequencing; medium: yeast; notes: weak parent motif; baseline: not given; reading: higher = stronger binding
Starting sequence: ASZ1 docking peptide (human); GFGFLLFICKLTF
Change	normalised enrichment score
C9A	0.856
T12A	0.33
G1A	0.745
G3A	0.756
L6A	0.572
F4A	0.327
K10A	0.646

Series 4 — technique: protein binding microarray; form: double-stranded DNA, one strand shown; medium: in vitro; tested at: not given; baseline: not given; reading: higher = stronger binding
Target: Histone acetyltransferase KAT6A, both winged helices, GST fusion (KAT6A, Homo sapiens, UniProt Q92794, residues 1-181)
Notes: 8-mer, flanks averaged, mean of 2 arrays, mostly near background
Construct (chain): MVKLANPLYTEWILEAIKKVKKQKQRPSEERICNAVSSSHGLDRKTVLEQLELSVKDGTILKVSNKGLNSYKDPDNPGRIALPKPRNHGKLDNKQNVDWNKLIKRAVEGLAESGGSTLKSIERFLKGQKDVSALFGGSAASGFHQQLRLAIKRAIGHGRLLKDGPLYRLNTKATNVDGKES
Sequence	E-score
AGCTCATC	-0.174
GTGTTTCA	-0.0282
CGCGTGGC	0.247
CTGTAGTC	-0.101
ACAAGAAA	-0.036
GAAGAGGA	-0.0472
CCTACTGA	-0.204
CCCGGTAG	0.201
GCAGGGAC	-0.0553
ATCTTGCG	0.107
AGGTGTAA	-0.152
CCATATCA	-0.0765
ATCCCTCG	-0.0537
ATCGTTGC	-0.0596
AATCTTAC	-0.0465
AAGCCTTA	-0.0206
AGTACTGA	-0.0545
GAAGGAGA	-0.0787
TAATAGCA	-0.158
CAGAACCA	-0.017
GTCTGTGA	-0.0283
ATAGCAAT	-0.199

Series 5 — technique: DHFR PCA, deep sequencing; medium: yeast; together with: (+)-ABA 4.8 µM; baseline: wild-type fitted maximum; reading: higher = stronger binding
Target: ABI1, truncated, D143A, DHFR fusion (Arabidopsis thaliana)
Notes: methotrexate growth selection, single substitutions
Starting sequence: PYL1, truncated, DHFR fusion (Arabidopsis thaliana); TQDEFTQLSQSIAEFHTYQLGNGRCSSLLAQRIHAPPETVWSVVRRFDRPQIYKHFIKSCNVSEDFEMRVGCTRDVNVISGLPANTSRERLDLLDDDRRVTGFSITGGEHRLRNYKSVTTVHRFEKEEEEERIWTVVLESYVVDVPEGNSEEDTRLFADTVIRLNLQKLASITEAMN; partner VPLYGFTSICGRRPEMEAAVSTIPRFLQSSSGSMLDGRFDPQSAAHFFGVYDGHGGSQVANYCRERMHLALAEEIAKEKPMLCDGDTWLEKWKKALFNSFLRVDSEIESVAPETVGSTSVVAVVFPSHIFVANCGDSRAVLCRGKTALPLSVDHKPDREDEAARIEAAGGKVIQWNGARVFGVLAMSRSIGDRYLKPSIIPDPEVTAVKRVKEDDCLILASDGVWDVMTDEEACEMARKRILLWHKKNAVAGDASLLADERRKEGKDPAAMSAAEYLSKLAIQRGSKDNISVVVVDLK
Change	relative binding score
I57H	8.12%
A35I	-5.3%
N61V	79.5%
R111T	-7.17%
L8P	14.1%
L20E	77.1%
R111L	21.2%
D65T	62.3%
L112M	45%
S87Y	33.4%
L82Q	3.31%
R99W	89.2%
K54R	16.7%
S27G	78.3%
L169V	-8.64%

Single results of other studies
Substance	target	test	system	setting	how to read	quantity	value
PhoQ, residues 284 288 289 292 302 303 AAQSYM	PhoP, residues 12 14 15 18 19 GHCSL (Escherichia coli, UniProt P23836)	Sort-seq, measured: YFP reporter	E. coli	PhoQ-PhoP variant library, together with: 10 µM Mg2+	baseline: high Mg2+ state, higher = stronger signaling	fold induction	11.6

For quick reference, copied from above (series 4):
Sequence	E-score
GAAGGAGA	-0.0787
TAATAGCA	-0.158
CAGAACCA	-0.017
GTCTGTGA	-0.0283
ATAGCAAT	-0.199
